Assay results collected from several papers.
Numbered parts are unrelated; each lists some results of a single study. Positions count from the first letter of the parent shown.

Study 1
Target: PABPC1L2, full length, GST fusion (mouse, UniProt A0ABA7IW68)
Technique: RNAcompete
Molecule type: RNA
Matrix: in vitro
Concentration: 20 nM
Setting: 7-mer, probes averaged, single round
Baseline: mean of 7-mers
Direction: higher = stronger binding
Residues (chain): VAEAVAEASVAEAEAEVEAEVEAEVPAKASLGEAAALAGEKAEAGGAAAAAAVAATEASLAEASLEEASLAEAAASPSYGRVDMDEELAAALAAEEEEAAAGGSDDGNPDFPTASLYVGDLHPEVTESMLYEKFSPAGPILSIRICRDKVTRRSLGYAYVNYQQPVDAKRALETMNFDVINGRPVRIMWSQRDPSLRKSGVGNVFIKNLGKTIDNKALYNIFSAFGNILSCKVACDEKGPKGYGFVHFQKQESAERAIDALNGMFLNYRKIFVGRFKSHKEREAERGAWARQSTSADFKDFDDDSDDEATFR
The 7-mer Z-score of `GGACGAA` is reported as 0.376.
The 7-mer Z-score of `GAUGACC` is reported as -0.19.
For `UUAUCCU`, the 7-mer Z-score was -0.278.
The 7-mer Z-score of `CAAUACG` is reported as -0.148.
The 7-mer Z-score of `UGGUAAG` is reported as -0.153.
With `GCGAACC` the 7-mer Z-score was -0.079.
The 7-mer Z-score of `CAGGCCG` is reported as -0.11.
`UGGAGUA` gave a 7-mer Z-score of -0.0337.
`AAUUUAU` gave a 7-mer Z-score of 0.503.
With `AAGAACC` the 7-mer Z-score was 0.289.
For `GGUCGAG`, the 7-mer Z-score was 0.0515.
`GACGUCU` has a 7-mer Z-score of -0.369.
The 7-mer Z-score of `CUAGGAU` is reported as -0.0663.
`UUUGAAA` has a 7-mer Z-score of 0.095.
With `UUGUUGG` the 7-mer Z-score was -0.409.
With `GGCUCGG` the 7-mer Z-score was -0.0101.
For `AGUUUAC`, the 7-mer Z-score was -0.295.
For `CACUCAC`, the 7-mer Z-score was -0.0627.
`CGUAUCG` has a 7-mer Z-score of -0.391.
`GAGCCAC` gave a 7-mer Z-score of -0.0899.

Study 2
Target: RING finger protein unkempt homolog, zinc fingers 1-6, GST-SBP tag (UNK, Homo sapiens, UniProt Q9C0B0, residues 30-357)
Technique: RNA Bind-n-Seq
Molecule type: RNA
Matrix: in vitro
Concentration: not given
Setting: RNA with constant flanks, human-mouse chimeric sites, ends assumed
Baseline: input RNA pool
Direction: higher = stronger binding
All sequences stand within: GGGAGUUCUACAGUCCGACGAUC … CAACAGAGGAUUGAGCAUCA
Target sequence (chain): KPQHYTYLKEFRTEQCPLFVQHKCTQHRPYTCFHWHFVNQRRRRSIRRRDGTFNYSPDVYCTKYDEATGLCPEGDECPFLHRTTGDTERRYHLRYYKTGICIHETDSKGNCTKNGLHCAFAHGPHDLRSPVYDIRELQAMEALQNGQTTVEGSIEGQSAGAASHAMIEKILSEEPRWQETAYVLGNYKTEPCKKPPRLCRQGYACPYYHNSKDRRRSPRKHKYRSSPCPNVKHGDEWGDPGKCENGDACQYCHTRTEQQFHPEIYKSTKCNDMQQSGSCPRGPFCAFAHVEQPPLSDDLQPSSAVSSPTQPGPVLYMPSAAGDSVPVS
For `AGAUAUUAAGUAUUUUGAAAAAACUCGAACAGAUUUGACAAGGGUAGCCAGCUUGGAGUCUAGCAACUUGCCAAUGUGUUUACCAAUCUGGGGGCUUUGUUUUUCUUUCUUCUUUCAAAU`, the bound/input enrichment was 0.278 ratio.
With `CUGUGUGUGCUGAAUAAUGAUUUGUGAAAGAAGUUUUUCCAAGCUGUAACCCAUGCUGUUAUUAUAGUUGCUGCAAAAUGUUCUUCCUGAUAUUGAUUUUAUUUGUUAACUGAAGGUCUC` the bound/input enrichment was 0.408 ratio.
The bound/input enrichment of `UUACCCGAGAACGAGGAUGAGCUGGAGAGCACCAACAGGCGCUACACCAAGAGAGACUGCAGCACUUUCCUCAGAACUAGUGAGACGGGCAUCGUGGACCAGGUCAUGGUAACUCUCAAC` is reported as 0.13 ratio.
The bound/input enrichment of `ACACAAUAUGAGACCAACAGCAUGGACUUCAAAGUUGGGGCAGAUGGGACAGUCUUCGCCACCCGGGAGCUGCAGGUCCCCUCCGAGCAGGUGGCGUUUACCGUCACUGCAUGGGACAGC` is reported as 0.158 ratio.
For `AAAGAGUGGAUAGAGUGUGCACACGGGAUCGGUGGGACCCGGGCGAAAAAGGAGUGCAAGAUAGAGUUCGAUGACUUCGAAGAGUGCUUGCUUCGGCAGAAAACGAUGAGGCGAAUGCAU`, the bound/input enrichment was 0.265 ratio.
For `GUUGCCAGCUUCCGGUUCCGUUGGGCUCGGUUCUCUCCUGAGCUACGUGUCUCUACGCUCUCAAUCCGCCAUCCAACGGCAGUCAUGCAGGUAAUGCAGUUUGUGGAUGAGCCAAGUCAG`, the bound/input enrichment was 0.0478 ratio.
`UCCUGGUCGUGUCCCAGUGCAGGACGAUGUGAACAAAAACUCAAAGCGGACCCUCUAUUGUAGUUCUUGAUUCUCGAAAUGUGCUAUUAUUGUUUGUAAAAAAGGAAUUUUUUUUAAAGA` has a bound/input enrichment of 0.391 ratio.
For `UUUGUAUUCAUGUUAAGCACACGUGCUGGUGGUCUGGGCAUCAAUCUUGCAACUGCUGAUGUAGUCAUUUUGUAUGACUCAGAUUGGAAUCCGCAAGUUGAUCUUCAGGCUAUGGACCGU`, the bound/input enrichment was 0.131 ratio.
For `ACACAAUAUGAGACCAACAGCAUGGACUUCAAAGUCGGGGCAGAUGGGACAGUCUUCGCCACCCGGGAGCUGCAGGUCCCCUCCGAGCAGGUGGCGUUCACGGUGACUGCGCGGGAAAGC`, the bound/input enrichment was 0.258 ratio.
For `GUACUGCAGCAGCAGGGAAAACUGCAGGAAGCUCUGAUGCAUUAUAAAGAAGCCAUACGAAUCAGUCCUACAUUUGCUGAUGCCUACUCUAAUAUGGGAAACACUCUAAAGGAGAUGCAG`, the bound/input enrichment was 0.244 ratio.
With `ACAGUUAUAUUGUUGAGUUUCAUUUUCUUGUAUGUUUGUAGUGUCUGCUUGCCUGUGUCUUUUAGUAAAAUAAAAUAAGCCUUUGAAAAUAUUUUAGCAUGGUAUUUAACAUUUUCUAAA` the bound/input enrichment was 2.72 ratio.

Study 3
Target: RNA binding protein fox-1 homolog 2, RRM domain, GST-SBP tag (RBFOX2, Homo sapiens, UniProt O43251-10, residues 100-194)
Technique: RNA Bind-n-Seq
Molecule type: RNA
Matrix: in vitro
Concentration: 365 nM
Setting: natural RNA segment, single round, ends assumed
Baseline: no-protein control
Direction: higher = stronger binding
All sequences stand within: GGGAGUUCUACAGUCCGACGAUC … UGGAAUUCUCGGGUGCCAA
Residues (chain): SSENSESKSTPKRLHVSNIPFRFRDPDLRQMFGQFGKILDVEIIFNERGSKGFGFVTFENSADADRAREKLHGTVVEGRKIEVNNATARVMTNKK
Under “RBNS enrichment (R)”, `AAUCCUCUUCACCUCUGUGUUUUCUUCUAGAAGAUGCAUUUUGGGUCUGAGAGGAGCAUUUUCCUGGAAGGCCAUCUUUUAAGGCCCCUGCUUGCUGUCAUAGUGCAGAG` is recorded as 1.27.
Under “RBNS enrichment (R)”, `AGAUCGCCCGCAUUCCGGAGGCCUUCAAGUAAACGGCGCGCCCCACGAGACCCCGGCUUCCUUUCCCAAGCCUUCGGGCGUCUGUGUGCGCUCUGUGGAUGCCAGGGCCG` is recorded as 0.357.
For `CGUUUAUAACAGUCACAUUUAAUUAUAAUGUACAUCAAAGGCAGAAUUUCAGAAUGGUUUCUUAAAUUUCCUUGGGAACCGUUUCCACAUAUCAGUUAUAGACAAAGGCC`, “RBNS enrichment (R)” read 0.414.
For `GUGGAGAAAGCACUUGCUUUCAUCCUCUGGCAUCGGAAACUCCCCUAUGCACUUGAAGAUGGUUUAAAAGAUUAAAGAAACGAUUAAGAGAAAAGGUUGGAAGCUUUAUA`, “RBNS enrichment (R)” read 0.713.
`GCAUCUGUCUGCAGCUAAUGUACCUCCUGGACACCAGGAGGGGAAAAAGCACUUUUUCAAUUGUGCUGAGUUAGACAUCUGUGAGUUAGACUAUGGUGUCAGUGAUUUUU` — result for “RBNS enrichment (R)”: 0.506.
`CCCCUUCCCUGAUGCCAGGGGCACCAGACUGAUUCUGAGGCACAAAUAAAAGAGGCUUCAUACCGGAGGCUUUUGCUACCUAACUUUACUUGGGGGGAACGCCUACGGUG` — result for “RBNS enrichment (R)”: 0.246.
`GGAGCUUUAAUCAGUAAAUGUCUCCACUUCCUAUAUUACAUUAACGUUGGCUCAUGCAUAUAACCACCUGCUGCUGAUGUACUUCUCCAUCUUAAAAAGAUUUAGAGUGG` — result for “RBNS enrichment (R)”: 0.478.
`GGCACAUUCAUUCACCCCAACACUUCUAUCUAAAGGCCAAGGUUCUAGGGCUGCUAUGGUCACUAACACACUGAUUCUCCUUAAAGUAAUUCUCGAAGUGUGGAACAAAG` — result for “RBNS enrichment (R)”: 0.452.
Under “RBNS enrichment (R)”, `GGCCCCAGAUACAUACAUGCCCACAUGCACGCUUACAUGUUUAGAGCCAUCCUUGUUUCCAAAUAUGACCCUUCGCUUGAGGGCAACUGCAUAGGUACAUCUAACUCUGG` is recorded as 1.93.
Under “RBNS enrichment (R)”, `CCACAUUCACAUUCCCCUCCCCCUGUGGUCCAGUGAAGCCUCCGGACCCCAGGCUCUGCUCUGCCCUGCCCUGCACCCCCCUCGUCAGAAGUACAUGAGGGGCGCAGAGA` is recorded as 0.935.
`GGGCACCAGGAGACAGGGUCCAGGAAUCCAGGUAUGCCUGUACUUGCUUGAGCAACGACUGAGGGCUGCCAGCUUUUGCUGACAAGGUAGGAUGGGACCCCCAAUAAGUG`: “RBNS enrichment (R)” 0.46.
Under “RBNS enrichment (R)”, `CUUCUAAGAGACAGCUUCCAACAGGAACUCUAGCCAAGAACCACGGCCUACACUCUCCAACACAAUCCAGAGGCCACAACUAGGUCCCACAGCUAAUUUACCCCUGGAGA` is recorded as 0.395.

Study 4
Target: ABI1, truncated, D143A, DHFR fusion (Arabidopsis thaliana)
Technique: DHFR PCA, deep sequencing
Matrix: yeast
Setting: methotrexate growth selection, single substitutions
Added: (+)-ABA 0.11 µM
Baseline: wild-type fitted maximum
Direction: higher = stronger binding
Parent: PYL1, truncated, DHFR fusion (Arabidopsis thaliana); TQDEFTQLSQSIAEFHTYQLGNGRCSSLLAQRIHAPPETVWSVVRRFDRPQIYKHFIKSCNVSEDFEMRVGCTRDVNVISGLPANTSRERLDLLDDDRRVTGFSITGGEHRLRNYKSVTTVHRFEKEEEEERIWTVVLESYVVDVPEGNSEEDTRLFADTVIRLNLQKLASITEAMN
`T73N` — result for “relative binding score”: 16%.
`V76R`: “relative binding score” -2.03%.
For `P50G`, “relative binding score” read -6.82%.
For `T106L`, “relative binding score” read 58%.
`A30D`: “relative binding score” 7.83%.
`E109R`: “relative binding score” -3.8%.
For `S171Q`, “relative binding score” read 54.5%.
For `Q51Y`, “relative binding score” read 9.35%.
Under “relative binding score”, `I12L` is recorded as 0.92%.
Under “relative binding score”, `F66G` is recorded as 22.1%.
For `E125G`, “relative binding score” read 38.6%.
For `A158R`, “relative binding score” read -1.28%.
`A35T` — result for “relative binding score”: 7.54%.
`T120P` — result for “relative binding score”: -1.32%.
`E128K`: “relative binding score” 25.2%.
`T1G`: “relative binding score” 28.8%.
`I105K`: “relative binding score” 10.3%.
`L94D`: “relative binding score” -11.3%.

Study 5
Target: Histone acetyltransferase KAT6A, both winged helices, GST fusion (KAT6A, Homo sapiens, UniProt Q92794, residues 1-181)
Technique: protein binding microarray
Molecule type: double-stranded DNA, one strand shown
Matrix: in vitro
Concentration: not given
Setting: 8-mer, flanks averaged, mean of 2 arrays, mostly near background
Baseline: not given
Direction: higher = stronger binding
Target sequence (chain): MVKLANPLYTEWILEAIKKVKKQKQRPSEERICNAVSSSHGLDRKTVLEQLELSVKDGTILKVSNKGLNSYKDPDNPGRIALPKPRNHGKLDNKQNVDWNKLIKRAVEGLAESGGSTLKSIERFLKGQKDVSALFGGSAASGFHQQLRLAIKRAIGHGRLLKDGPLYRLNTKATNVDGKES
For `GGAAGGCC`, the E-score was -0.0495.
For `AGCTAGTC`, the E-score was -0.0929.
For `CAGCCTCC`, the E-score was -0.17.
`ACACGCCA` has an E-score of 0.114.
For `GGAGCCAC`, the E-score was -0.176.
For `GTTGTACA`, the E-score was 0.129.
The E-score of `AGTTGCTC` is reported as -0.189.
`ACTATAAA` has an E-score of -0.104.
`TCAGGGAA` gave an E-score of -0.0733.
For `AGTCTAAC`, the E-score was -0.0978.
`CTGGAGTC` has an E-score of -0.249.
The E-score of `AGTGGATG` is reported as -0.111.
For `CTTTGTAA`, the E-score was -0.109.
`CCAATTAC` has an E-score of -0.0864.
With `CAAGACGG` the E-score was 0.0785.
With `AGCTGCTA` the E-score was -0.168.
For `GACGCCAC`, the E-score was 0.131.
The E-score of `AGGATAGC` is reported as -0.00398.
`CTGAGAGA` has an E-score of -0.166.
`CGTGGGGA` has an E-score of -0.00764.

A few entries again (study 4):
`E109R`: “relative binding score” -3.8%.
For `S171Q`, “relative binding score” read 54.5%.
For `Q51Y`, “relative binding score” read 9.35%.
Under “relative binding score”, `I12L` is recorded as 0.92%.
Under “relative binding score”, `F66G` is recorded as 22.1%.
